Experimental data pooled from the literature.
Every numbered part comes from another study and shows a few of its results, in no order. Substitutions count along the parent as printed.

Sample 1 — technique: DHFR PCA, deep sequencing; sample: yeast; with: (+)-ABA 2500 µM; reference: wild-type fitted maximum; direction: higher = stronger binding
Target: ABI1, truncated, D143A, DHFR fusion (Arabidopsis thaliana)
Notes: methotrexate growth selection, single substitutions
Starting sequence: PYL1, truncated, DHFR fusion (Arabidopsis thaliana); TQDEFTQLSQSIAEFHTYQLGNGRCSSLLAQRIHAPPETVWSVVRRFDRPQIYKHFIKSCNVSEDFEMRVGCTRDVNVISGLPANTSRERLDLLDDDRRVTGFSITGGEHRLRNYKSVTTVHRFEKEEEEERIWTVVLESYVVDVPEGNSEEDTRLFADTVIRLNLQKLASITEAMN; partner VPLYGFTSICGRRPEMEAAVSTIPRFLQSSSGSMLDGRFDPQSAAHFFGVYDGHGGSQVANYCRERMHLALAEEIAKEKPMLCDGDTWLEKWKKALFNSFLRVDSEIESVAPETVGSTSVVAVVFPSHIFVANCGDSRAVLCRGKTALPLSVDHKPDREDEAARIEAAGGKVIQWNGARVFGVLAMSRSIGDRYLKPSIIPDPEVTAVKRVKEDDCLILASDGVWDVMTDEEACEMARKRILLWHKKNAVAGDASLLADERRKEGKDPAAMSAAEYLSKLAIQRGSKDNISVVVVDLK
| Substitution | relative binding score [%] |
| --- | --- |
| T154R | 0.604 |
| G81T | 79.5 |
| K58D | 92 |
| P50T | 20.5 |
| D92M | 87.6 |
| A13D | 91.8 |
| S117M | 55.2 |
| F56A | 69.7 |
| T135F | -3.27 |
| R69N | 102 |
| Y115D | 5.25 |
| E109A | 95.5 |
| M176Q | 94 |
| V142N | 88.6 |

Sample 2 — target: CCNF, cyclin fold, Cln2 fusion (human); technique: yeast growth competition, sequencing; sample: yeast; notes: strong parent motif; reference: not given; direction: higher = stronger binding
Starting sequence: CDKN1A docking peptide (human); SKACRRLFGPVDS
| Substitution | normalised enrichment score |
| --- | --- |
| G9R | 5.98 |
| R6S | 6.59 |
| R6V | 6.33 |
| F8A | 0.151 |
| V11L | 7.65 |
| R6C | 6.71 |
| F8N | 0.514 |
| K2R | 7.59 |
| L7I | 3.63 |
| R5I | 0.909 |
| G9C | 6.82 |
| A3N | 1.17 |
| P10H | 6.61 |
| A3T | 8.41 |
| G9A | 7.57 |
| A3H | 5.09 |
| D12M | 7.48 |
| R5N | 0.495 |
| L7P | 0.431 |

Sample 3 — technique: protein binding microarray; form: double-stranded DNA, one strand shown; sample: in vitro; tested at: not given; reference: not given; direction: higher = stronger binding
Target: Histone acetyltransferase KAT6A, both winged helices, GST fusion (KAT6A, Homo sapiens, UniProt Q92794, residues 1-181)
Notes: 8-mer, flanks averaged, mean of 2 arrays, mostly near background
Residues (chain): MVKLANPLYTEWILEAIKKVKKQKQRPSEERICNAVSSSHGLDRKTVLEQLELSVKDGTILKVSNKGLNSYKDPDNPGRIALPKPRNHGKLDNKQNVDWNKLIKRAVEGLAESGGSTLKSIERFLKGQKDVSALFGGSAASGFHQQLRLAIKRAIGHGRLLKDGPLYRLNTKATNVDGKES
| Oligonucleotide | E-score |
| --- | --- |
| AAGCTACA | -0.0865 |
| AGTGTTAG | -0.176 |
| GAGCTTAC | -0.0142 |
| CCGCCGCC | 0.339 |
| TGCCGAAA | 0.0745 |
| CCATGCCA | -0.0489 |
| AGGTTATA | -0.106 |
| GGATACTA | 0.00883 |
| AATAAGGT | -0.0319 |
| CCTTCGTC | -0.131 |
| ACAAGGGC | -0.0896 |
| GTGAGCAC | -0.0726 |

Single results of other studies
| Substance | target | assay | test system | setting | scale | endpoint | value |
| --- | --- | --- | --- | --- | --- | --- | --- |
| PhoQ, residues 284 288 289 292 302 303 TNASYF | PhoP, residues 12 14 15 18 19 NIMAP (Escherichia coli, UniProt P23836) | Sort-seq, refers to: YFP reporter | E. coli | PhoQ-PhoP variant library, with: 10 µM Mg2+ | reference: high Mg2+ state, higher = stronger signaling | fold induction | 1.12 |
